{"data": "Experimental data collected from several papers", "note": "± gives the spread as reported."}
{"Compound": "N#C[C@@]1(n2ccc(N)nc2=O)O[C@H](CO)[C@@H](O)[C@H]1O", "tested on": "Salmonella typhimurium", "system": "TA100", "conditions": "600 nM, without S9", "scale": "reference: control", "measurement": "viability", "value": "106%"}
{"Compound": "CC(=O)N1CCC(C(=O)N2CCN3C(=O)c4cc(-c5ccccc5)ccc4NC(=O)C3C2)CC1 (stereo not drawn)", "tested on": "Salmonella typhimurium", "system": "TA100", "conditions": "500 µg/plate, without S9", "measurement": "revertants per plate", "value": 104}
{"Compound": "Cc1ccccc1CN1C(=O)c2ccccc2Sc2ccc(C(=O)NCCCN3CCOCC3)cc21", "tested on": "Vero-E6", "test": "CellTiter-Glo ATP", "conditions": "concentration not given, 72 h, first round 5-point", "scale": "reference: DMSO 0%, hyamine -100%, more negative, more toxic", "measurement": "cytotoxicity efficacy", "value": "0%"}
{"Compound": "O=[N+]([O-])c1ccc(NC2CCNCC2)c(C(F)(F)F)c1", "tested on": "Salmonella typhimurium", "test": "SOS/umu test", "system": "TA1535/pSK1002", "conditions": "0.125 mg/mL, 4 h, with S9, full range", "measurement": "survival", "value": "91.6%"}
{"Compound": "COc1cccc(-c2n[nH]c(SCc3ccccn3)n2)c1OC", "tested on": "Salmonella typhimurium", "test": "Ames test, plate incorporation", "system": "TA100", "conditions": "0.25 mg/plate, with rat liver S9", "measurement": "revertant colonies per plate", "value": 105}
{"Compound": "O=NN1CCN(C2CCCC2)CC1", "tested on": "Salmonella typhimurium", "test": "mutagenicity, Ames plate incorporation", "system": "TA98", "conditions": "500 µg/plate, 3 d, without S9, methanol", "measurement": "revertant colonies per plate", "value": "25.7 ± 11"}
{"Compound": "OC(CCN1CC=C(c2ccc(F)cc2)CC1)c1ccc(F)c2ccccc12 (stereo not drawn)", "tested on": "Salmonella typhimurium", "test": "genotoxicity, SOS/umu test", "system": "TA1535/pSK1002", "conditions": "0.031 mg/mL, 4 h, without S9, lower range", "measurement": "induction factor", "value": 1.5}
{"Compound": "CNC(=O)c1c(N(C)N=O)ncn1C", "tested on": "Salmonella typhimurium", "test": "plate incorporation", "system": "TA1535, water", "conditions": "500 µg/plate, without S9", "measurement": "revertant colonies per plate", "value": "33 ± 3"}
{"Compound": "O=[N+]([O-])c1ccc(N2CCN(CCC(O)c3ccc(F)cc3)CC2)c(C(F)(F)F)c1 (stereo not drawn)", "tested on": "Salmonella typhimurium", "test": "genotoxicity, SOS/umu test", "system": "TA1535/pSK1002", "conditions": "0.063 mg/mL, 4 h, without S9, lower range", "measurement": "induction factor", "value": 0.4}
{"Compound": "Cc1cc(C(=O)NC(C)(C)COc2cccc3c2C(N)=NS(=O)(=O)N3)cc(C)n1", "tested on": "Salmonella typhimurium", "test": "Ames test, initial", "system": "TA1537", "conditions": "50.0 µg/plate, added: rat liver S9", "scale": "reference: solvent control", "measurement": "revertant ratio", "value": 0.9}
{"Compound": "CCC1CCCCN1CCCNC(=O)c1sc2nc(C)cc(C)c2c1-n1cccc1 (stereo not drawn)", "tested on": "Vero-E6", "test": "CellTiter-Glo ATP", "conditions": "concentration not given, 72 h, first round 5-point", "scale": "reference: DMSO 0%, hyamine -100%, more negative, more toxic", "measurement": "cytotoxicity efficacy", "value": "0%"}
{"Compound": "CN(CC(C)(C)C)N=O", "tested on": "Salmonella typhimurium", "test": "mutagenicity, Ames plate incorporation", "system": "TA1537", "conditions": "500 µg/plate, without S9, methanol", "measurement": "revertant colonies per plate", "value": "12 ± 5"}
